{"data": "Published values collected from several papers", "note": "Compare with care: the assays were run in different laboratories. Several values in a cell are separate wells, animals, samples, runs or records. ± gives the spread as reported."}
{"Compound": "CC[C@@H]1CN2CCc3c([nH]c4cccc(OC)c34)[C@@H]2C[C@@H]1/C(=C\\OC)C(=O)OC", "target": "rabbit anti-mitragynine polyclonal IgG", "test": "antigen binding, competitor, competitive indirect ELISA", "test system": "5% methanol", "conditions": "60 min antibody-standard, 90 min antibody-antigen incubation", "quantity": "IC50", "value": "1 µg/mL and 0.96 µg/mL"}
{"Compound": "COc1ccccc1-c1n[nH]c2nc(NC3CCN(C(=O)Cc4ccc(F)cc4F)CC3)ncc12", "target": "Leishmania donovani CYC6 (LINJ.32.3520)", "test": "bead binding competition", "test system": "Leishmania donovani extract", "conditions": "10 µM", "how to read": "baseline: vehicle", "quantity": "relative abundance", "value": 0.7}
{"Compound": "Cc1ccc2c(n1)c(-c1cccc(S(C)(=O)=O)c1)c(C)n2C/C(F)=C/CN", "target": "androgen receptor (human)", "test": "radioligand binding", "conditions": "10 µM, with: testosterone", "quantity": "inhibition", "value": "-4%"}
{"Compound": "Nc1ncc(-c2cc(-c3cnn(CC(F)(F)F)c3)ncc2F)nc1C(=O)NC1CNCC(F)C1 (centres unmarked)", "target": "ABL1(E255K)-phosphorylated", "test": "KINOMEscan competition binding", "conditions": "1 µM", "how to read": "baseline: DMSO control", "quantity": "remaining binding", "value": "74%"}
{"Compound": "CC[C@H](C)[C@H](NC(=O)[C@H](CC(C)C)NC(=O)[C@H](CC(C)C)NC(=O)[C@H](CC(=O)O)NC(=O)[C@@H](NC(=O)[C@H](CCC(=O)O)NC(=O)[C@H](CCCCN)NC(=O)[C@H](Cc1ccc(O)cc1)NC(=O)[C@H](CCCCN)NC(=O)[C@H](Cc1c[nH]cn1)NC(=O)CNC(=O)CN)[C@@H](C)O)C(=O)N[C@@H](CC(C)C)C(=O)N[C@@H](Cc1ccccc1)C(=O)N[C@@H](CCCCN)C(=O)N[C@@H](CC(=O)O)C(=O)N[C@@H](CC(=O)O)C(=O)N[C@@H](Cc1ccc(O)cc1)C(=O)N[C@@H](Cc1ccccc1)C(=O)N[C@@H](C)C(=O)N[C@@H](CCCCN)C(=O)N[C@@H](CCCCN)C(=O)N[C@@H](CC(N)=O)C(=O)N[C@@H](CCC(=O)O)C(=O)N[C@@H](CCC(=O)O)C(=O)N[C@@H](CCCNC(=N)N)C(=O)N[C@@H](CCCCN)C(N)=O", "target": "HCV IRES RNA", "test": "MALDI-TOF mass spectrometry, item: 5'-phosphate products", "test system": "hepatitis C virus", "quantity": "initial cleavage rate", "value": "2.8 ± 2.5 %/min"}
{"Compound": "Cc1cc(O)cc(C)c1C[C@H](N)C(=O)N[C@H](CCCNC(=N)N)C(=O)N[C@@H](Cc1ccccc1)C(=O)N[C@@H](CCCCN)C(=O)NCCCCCCCCCCCCNC(=O)[C@H](Cc1ccccc1)NC(=O)[C@H](CC1CCCCC1)NC[C@@H]1Cc2ccccc2CN1C(=O)[C@@H](N)Cc1ccc(O)cc1", "target": "delta opioid receptor (mouse)", "test": "antagonist", "test system": "mouse vas deferens", "conditions": "with: DPDPE", "quantity": "Ke", "value": "1800 ± 90 nM"}
{"Compound": "CC(C)C[C@H](NC(=O)[C@H](CC(=O)O)NC(=O)[C@@H](NC(=O)[C@H](CCC(=O)O)NC(=O)[C@H](CCCCN)NC(=O)[C@H](Cc1ccc(O)cc1)NC(=O)[C@H](CCCCN)NC(=O)[C@H](Cc1c[nH]cn1)NC(=O)CNC(=O)CN)[C@@H](C)O)C(N)=O", "target": "HCV IRES RNA", "test": "RNA cleavage, fluorescence", "test system": "hepatitis C virus", "conditions": "10 µM, with: H2O2 and ascorbate 1 mM, fluorescein-labelled HCV RNA 1 µM", "quantity": "initial rate", "value": "423 ± 105 nM/min"}
{"Compound": "Cc1[nH]nc2c1N=C(c1ccccc1Cl)c1cnc(N3CCOCC3)cc1N2", "target": "GABAA receptor flunitrazepam site, rat", "test": "radioligand binding", "test system": "brain", "conditions": "10 µM", "quantity": "inhibition", "value": "73%"}
{"note": "Some of these lines once more:"}
{"Compound": "CC[C@@H]1CN2CCc3c([nH]c4cccc(OC)c34)[C@@H]2C[C@@H]1/C(=C\\OC)C(=O)OC", "target": "rabbit anti-mitragynine polyclonal IgG", "test": "antigen binding, competitor, competitive indirect ELISA", "test system": "5% methanol", "conditions": "60 min antibody-standard, 90 min antibody-antigen incubation", "quantity": "IC50", "value": "1 µg/mL and 0.96 µg/mL"}
